# Assay results of several laboratories.
# Each numbered part is a random draw from the data of one study; scales do not carry over between parts.

# Study 1 — method: RNA Bind-n-Seq; form: RNA; medium: in vitro; concentration: not given; relative to: input RNA pool; direction: higher = stronger binding
# Target: RING finger protein unkempt homolog, zinc fingers 1-6, GST-SBP tag (UNK, Homo sapiens, UniProt Q9C0B0, residues 30-357)
# Sequence of UniProt Q9C0B0 (30-357, looked up): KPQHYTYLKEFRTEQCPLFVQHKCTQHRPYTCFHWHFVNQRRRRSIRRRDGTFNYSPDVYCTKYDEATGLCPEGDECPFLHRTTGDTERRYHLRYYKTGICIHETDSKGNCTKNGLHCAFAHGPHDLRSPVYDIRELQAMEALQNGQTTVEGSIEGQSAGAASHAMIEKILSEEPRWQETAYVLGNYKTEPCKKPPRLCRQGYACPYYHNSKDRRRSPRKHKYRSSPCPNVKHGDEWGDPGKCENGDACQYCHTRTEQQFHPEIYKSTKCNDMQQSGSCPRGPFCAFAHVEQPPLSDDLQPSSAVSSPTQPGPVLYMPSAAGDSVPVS
# Notes: RNA with constant flanks, human and mouse sites, ends assumed
# All sequences stand within: GGGAGUUCUACAGUCCGACGAUC … CAACAGAGGAUUGAGCAUCA
Strand,bound/input enrichment
ACUGGUGUGGUCGUUGUUGGAAUACAGGGAGAGCCUGAGCGUGGACCCCGCUUUCCCAGAACUAGUAGUGAGGCUGUGCUCCGUGAAAAUGCACCACCAGGGACUCCAGUUAUCUCCCCA,0.427 ratio
UUCUUGAAGGCUAUUGGGUAUCUUAUUCCUCUUAUGGAUGCAGAAUAUGCCAACUACUAUACUAGAGAAGUGAUGUUAAUCCUCAUUCGAGAAUUUCAGUCUCCUGAUGAAGAAAUGAAG,0.948 ratio
AAUGAACAUAAUGCCAAAAUAAUUAAAUAUAUAAGAACUAAGACAAAGCCCCAUUUGUUUUAUAUUCCUGGAAGAAUGUGUCCAGCUACCCAAAAACUAAUAGAAGAGUCACAGAGAAAA,4.74 ratio
UUUUAGAGUGUGGAAAAACCAAUCUGAGAAGAACAACCUACCUUGUCCUUGAUGAAGCAGAUAGAAUGCUUGAUAUGGGCUUUGAACCCCAAAUAAGGAAGAUUGUGGAUCAAAUAAGAC,0.241 ratio
AAUUUGUUGUCAGCAAGCAAAUUAUAUAACAAUAUCACCUUUGAAGAACUUGGAGCUCUUUUAGAGAUCCCUGCAGCUAAGGCAGAAAAGAUAGCAUCUCAGAUGAUAACGGAAGGACGC,0.716 ratio
UUGCUGGUGCUGACGGGCCUGUCUGUCCUCAUCGUGGCUGUCCACAUCCUGGAGCUGCUUAUUGACGAGGCUGCCAUGCCACGGGGCAUGCAGGAUGCUGCCCUAGGCCAGGCCUCCUUC,0.0592 ratio
GUUGGGAGACACAAAGGGGAAGUCAGUUUCCCAGGCGGUAAGUGUGAUCCCGACGACCAAGAUGUAAUACAUACGGCCCUUCGGGAGACUCAGGAGGAGCUGGGCCUAGAGGUGCCCAAG,0.185 ratio
AUCGUCAAUGAUGAUCAGUCCUUUUAUGCUGAUAUUUACAUGGAGGAUGGCUUAAUAAAGCAAAUUGGAGACAAUCUGAUUGUCCCCGGAGGUGUGAAGACCAUCGAGGCCAACGGGAAG,0.185 ratio
AAGCUGAAACCUCAUGAGGAGCCUCUCCGUUCUGAGAUCCUCAGUGGGAAGUUUACUAUCUUGAAUGUUCGAGACCCAACUGGAGCCUCCAUUGCCCUCUUCACUGCCAGGUUACACCAC,0.0519 ratio
CGUACAACUAGAGGAAAGCGGAAGAGGGUUGAUGUGGAAGAAUCAGAGGCGAGUAGUAGUGUUAGCAUCUCUCAUUCCGCCUCAGCCACUGGAAAUGUUUGCAUCGAAGAAAUUGAUGUU,1.02 ratio
AAUAAGAUUCAAAGUGAACUGGAUGGAUUACAGUCAGACAAUGAAAUUCUCAAAGCAGCUGUUGAACAUCACAAAGUGCUCUUAGUAGAAAAGGAUCGUGAAUUAAUACGUAAAGUACAA,0.422 ratio

# Study 2 — method: protein-binding microarray; form: double-stranded DNA, one strand shown; medium: in vitro; concentration: 250 nM; notes: 60-bp whole probe; with: salmon DNA 0.4 mg/ml; relative to: random background probes; direction: higher = stronger binding; all sequences stand within: GCCTAGCAC … GTCTTGATTCGCTTGACGCTGCTG
# Target: Interferon regulatory factor 7, full length, phosphomimetic (IRF7, Homo sapiens, UniProt Q92985, residues 1-503, S101K/S471D/S472D/S475D/S476D/S477D/S483D/S484D/S487D)
# Construct (chain): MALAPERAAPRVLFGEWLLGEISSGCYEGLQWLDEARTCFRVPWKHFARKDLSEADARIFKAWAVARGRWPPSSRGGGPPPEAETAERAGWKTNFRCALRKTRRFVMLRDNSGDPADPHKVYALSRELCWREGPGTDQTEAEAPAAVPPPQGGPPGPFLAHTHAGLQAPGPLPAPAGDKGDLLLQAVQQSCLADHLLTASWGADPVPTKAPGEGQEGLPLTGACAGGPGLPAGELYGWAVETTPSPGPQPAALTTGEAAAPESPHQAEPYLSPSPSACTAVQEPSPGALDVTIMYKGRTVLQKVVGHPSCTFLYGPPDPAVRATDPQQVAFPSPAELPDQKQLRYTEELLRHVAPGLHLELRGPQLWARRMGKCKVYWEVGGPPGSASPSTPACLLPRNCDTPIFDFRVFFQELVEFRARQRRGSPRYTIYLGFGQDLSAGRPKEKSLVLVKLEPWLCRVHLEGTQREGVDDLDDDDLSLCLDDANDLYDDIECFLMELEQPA
Strand,log fluorescence [z-score]
GAAGATATCGGGTTTCGAGACGTGCTA,3.03
TTAGGACTGCTGTTCCTTTAGTGCTAG,-0.00145
GACGGTTCCCTTTTCCTGCCGTGCTAG,2.58
TTAGGTATCCTTTTCCTTCAGTGCTAG,1.6
GACGCTTTCCTTCTCCTGACGTGCTAG,1.25
GACGATCTCAGTTTCGAGCCGTGCTAG,1.63
AAAACTCTTTATTTAAGCTCGTGCTAG,0.31
GACGGTACCCTTATCCTGACGTGCTAG,0.0515
CCCTTTCTCAACCTCCAGAGGTGCTAG,2.34
TCACTTATAAATAGCACACTGTGCTAG,0.574
GACGGACGGGGTATCGGGACGTGCTAG,-0.533

# Study 3 — method: protein-binding microarray; form: double-stranded DNA, one strand shown; medium: in vitro; concentration: not given; direction: higher = stronger binding
# Target: Hepatocyte nuclear factor 3-beta, forkhead domain (FOXA2, Homo sapiens, UniProt Q9Y261, residues 142-269)
# Notes: k-mer, scored over probes, only values ≥0.25
# Residues (chain): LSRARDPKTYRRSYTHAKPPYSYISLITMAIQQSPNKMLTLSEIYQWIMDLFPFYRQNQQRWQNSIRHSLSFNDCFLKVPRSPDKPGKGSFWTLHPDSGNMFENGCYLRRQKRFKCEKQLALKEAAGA
Strand,E-score
ACTACAAC,0.279
ATATTTTA,0.26
CTAATATA,0.401
CGTTGTTA,0.26
GCATTATA,0.299
TAACACTA,0.343
AACACAAC,0.281
AGATACAG,0.266
AGTCAACA,0.371
CACACAAA,0.34
TACAAACA,0.41
CATTTTAC,0.319
ATGGTATA,0.326
GTACATAC,0.311
TATTAGAA,0.284
AACATATT,0.335
ATTTATAC,0.338

# Study 4 — method: RNA Bind-n-Seq; form: RNA; medium: in vitro; concentration: 1 µM; notes: whole 134-nt RNA, ends assumed; with: 150 mM KCl; relative to: input library; direction: higher = stronger binding
# Target: Ras GTPase-activating protein-binding protein 1, C-terminal RGG region (G3BP1, Homo sapiens, UniProt Q13283)
# Sequence of UniProt Q13283 (whole entry, looked up): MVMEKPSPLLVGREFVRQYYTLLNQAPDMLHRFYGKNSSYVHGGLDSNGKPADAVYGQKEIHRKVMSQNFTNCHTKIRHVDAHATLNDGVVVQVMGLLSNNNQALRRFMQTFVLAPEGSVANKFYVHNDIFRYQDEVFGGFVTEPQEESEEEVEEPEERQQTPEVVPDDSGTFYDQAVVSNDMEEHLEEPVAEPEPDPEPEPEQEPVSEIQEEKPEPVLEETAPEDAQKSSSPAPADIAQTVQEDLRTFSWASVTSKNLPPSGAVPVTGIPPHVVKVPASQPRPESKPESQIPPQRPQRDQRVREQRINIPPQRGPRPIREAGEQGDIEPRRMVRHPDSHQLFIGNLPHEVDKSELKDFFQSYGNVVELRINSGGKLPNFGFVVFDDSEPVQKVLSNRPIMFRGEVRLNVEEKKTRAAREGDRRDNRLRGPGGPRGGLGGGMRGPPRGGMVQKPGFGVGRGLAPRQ
# All sequences stand within: GGGAGUUCUACAGUCCGACGAUC … UGGAAUUCUCGGGUGUCAAGG
Strand,log2 enrichment
GUCCUGUGCUACACAUCGUAUGUACCGAAUCGGGUUUUUUGGUUUUUUGGUUUUUUGGGAAAGUAUUAUGUUACGCCGUUCGGAUCUGCA,-1.69
ACCAUGCAGGUGGGCAUCUUUGGGAAGUGGGGCAAGGGGGGGAUAGGAAGGGGGGUAACACUUUGGGAACAGGUGGUCCCAGGUCGUUUC,2.08
CUCAAGUCCUGUGCUACACAUCGUAUGUACCGAAUCGGGUGGGGUGGGUGGGGAAAGUAUUAUGUUACGCCGUUCGGAUCUGCACUUCCA,2.24
UCCUCAAGUCCUGUGCUACACAUCGUAUGUACCGAAUCGGUUUGGAGGAGGAAAGUAUUAUGUUACGCCGUUCGGAUCUGCACUUCCAGC,-1.29
GGCGGAGCAGCUGAUGGAGGAGUGGAACGAAGACCUAGACGGCAUGGAGGGUUUCGUGCUGGAGGGCAAGAAGUUUGCGCGGCUGCCGGA,-1.38
ACCAUGCAGGUGGGCAUCUUUGGGAAGUGGGGCAAGGGGGGGAUAGGGAGGGGGGUAACACUUUGGGAACAGGUGGAAACAGGUCGUUUC,-0.812
UUCUUACAUGUGUAAUCUUCUUCUCCUAGGGCGGCAGAACUCAUGACAAGAACAAGCUCUGUGGUGACACUGGAAGUAGCAAAGCAGGGU,-0.351
UGUGCUACACAUCGUAUGUACCGAAUCGGGGUUUUUUUGGGGUUUUUUUGGGUUUUUUUGGGGAAAGUAUUAUGUUACGCCGUUCGGAUC,-0.762
GCAGGAAGUAAAAACAAAUGGAAAUGCUUCGGAUAGUGGCAGGGGUGGGGGUUGCUAAGGAAAGGGUGGGAUGGGCGUGGGUAAAGAGUU,1.25

# Study 5 — method: RNA Bind-n-Seq; form: RNA; medium: in vitro; concentration: 365 nM; relative to: no-protein control; direction: higher = stronger binding
# Target: RNA binding protein fox-1 homolog 2, RRM domain, GST-SBP tag (RBFOX2, Homo sapiens, UniProt O43251-10, residues 100-194)
# Notes: natural RNA segment, single round, ends assumed
# All sequences stand within: GGGAGUUCUACAGUCCGACGAUC … UGGAAUUCUCGGGUGCCAA
# Construct (chain): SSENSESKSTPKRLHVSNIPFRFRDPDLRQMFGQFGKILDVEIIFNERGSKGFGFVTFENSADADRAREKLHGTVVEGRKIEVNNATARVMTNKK
Strand,RBNS enrichment (R)
GUGUAUCAGCACUCAGCUCCCACAGAAGUCAAGUCACAAAAUAUAGUGUCAGUUAACUAUAAGGAAGUUCCGGAGAGGUAAAGCUCAGGAAAGAUGUAAUGCAAAGCUGA,0.799
AGGGUGAGGGUGGCUUGGGAACCGACCCAGUGAUCAUGCCUACUUUCUUCUUUGUAUCUCCCUCCUUCCCAGCCCACCCGGGCAGCAGACUCUGAUGGAAGGAAGGUGCC,0.41
CCCCAUGAUUCUGCUUCACUGUUGGAAUCCUCUUUGAAGUUCCCCCUCUCUUUGCUAAAGCAGUGAAGGAAGAGAACAGAGACAAACUCUUUGGACUGUGAAAGAGAAGG,0.369
UAAUUGACUUUUCUUUCAGCUCCAGUGUGAACUAUAAAACCAUAAUCACUCAGUUCUUGGAAAAGUCAAACAACGUGGUGGACAUUUUGUCACAUUUUAGAAGCAGUCAG,0.29
CCAUGGCCGCUCACCUUCCAUGAGACCACUCUUGUCACAUUGCUUUCCUUUAAGAUGCAUAUGCUUAACUAUUUGCAGUGUAUUCCUCAACAUAAACUUGUCUGACAGCA,0.548
UAGUGGCUAGCAUUUAUAGACCUGUUGUGUUUGUUUUGUUUCUUACUGACUGAUAGUAAAACUCAUGGAAGAACUCAAGAGAUGUCGAGACCAAAAGUCCCCAGUGACAC,0.401
CACAGUGAACUGUCCCUUCUGAGUCUCCCUUUUCUACAGUUGAUAUAUUUGUAACUGGUACAAGAUGAAGGACAGCAGCUUUCCAUCCCUAGUUCAGAGCCCCCGUUCCC,0.454
UUUUUUAAUUGUUCUUUAUGUUUAAAACUUGCAGAGAUAGAAGCAGGCUUCUGAGGUACGGGGUCUUGCUGUGUGCUCUCUCUCCGUGCUGCCGUUAAGCCAAAACAAAA,0.726
